# Assay results collected from several papers.
# Protocols differ between the studies behind these lines.
# Organism: Escherichia coli
SMILES,assay,system,setting,MIC
CCO[C@H]1[C@H](O)[C@@H](N)[C@@H](O[C@H]2[C@H](O[C@@H]3O[C@H](CO)[C@@H](O[C@H]4O[C@@H](CN)[C@@H](O)[C@H](O)[C@H]4N)[C@H]3O)[C@@H](O)[C@H](N)C[C@@H]2N)O[C@@H]1CO,broth microdilution,clinical isolate AG 002,,32 µg/mL
CC[C@H](C)[C@H](NC(=O)[C@@H]1CC(=O)N[C@@H](CO)C(=O)N[C@@H](CC(C)C)C(=O)NCC(=O)N[C@@H](CO)C(=O)N[C@@H](CO)C(=O)N2CCC[C@H]2C(=O)N[C@@H](Cc2ccc(O)cc2)C(=O)N[C@@H](CC(N)=O)C(=O)N1)C(=O)N[C@@H](CC(C)C)C(=O)NCC(=O)N[C@@H](Cc1ccc(O)cc1)C(=O)N1CCC[C@H]1C(=O)N[C@@H](C)C(=O)N[C@@H](CC(C)C)C(=O)N[C@H](C(=O)N[C@H](C(=O)N[C@H](C(=O)N[C@@H](Cc1ccc(O)cc1)C(=O)N1CCC[C@H]1C(=O)O)[C@@H](C)CC)C(C)C)[C@@H](C)CC,,,,> 128 µg/mL
CC(C)C[C@H](NC(=O)[C@H](CC(C)C)NC(=O)[C@H](CCCCN)NC(=O)[C@@H]1CCCN1C(=O)[C@H](CC(C)C)NC(=O)[C@H](CC(C)C)NC(=O)[C@H](CCCCN)NC(=O)[C@H](CC(C)C)NC(=O)[C@H](CC(C)C)NC(=O)[C@H](CO)NC(=O)CNC(=O)[C@H](CC(C)C)NC(=O)[C@@H](N)CC(C)C)C(N)=O,broth microdilution,K12,,12.5 µM
CC[C@H](C)[C@H](NC(=O)[C@H](CCCCNC(=N)N)NC(=O)[C@H](CC(N)=O)NC(=O)[C@H](CC(C)C)NC(=O)[C@H](Cc1ccccc1)NC(=O)[C@H](CCCCNC(=N)N)NC(=O)[C@H](CCCCNC(=N)N)NC(=O)[C@H](CC(C)C)NC(=O)[C@H](CC(C)C)NC(=O)[C@H](CCCCNC(=N)N)NC(=O)[C@H](CCCCNC(=N)N)NC(=O)[C@H](CC(C)C)NC(=O)CNC(C)=O)C(=O)N[C@@H](CCCCNC(=N)N)C(=O)N[C@@H](CCCCNC(=N)N)C(N)=O,broth microdilution,ATCC 25922,,3.12 µM
CC[C@@H](C)[C@@H](NC(=O)[C@@H](C)NC(=O)[C@@H](CCCCN)NC(=O)[C@@H](CC(C)C)NC(=O)[C@@H](C)NC(=O)[C@H](NC(=O)[C@@H](Cc1c[nH]cn1)NC(=O)[C@@H](CC(C)C)NC(=O)[C@H](NC(=O)[C@H](NC(=O)[C@@H](CCCCN)NC(=O)[C@@H](CCCCN)NC(=O)[C@@H](C)NC(=O)[C@@H](CO)NC(=O)[C@@H](CCCCN)NC(=O)[C@@H](Cc1ccccc1)NC(=O)[C@H](NC(=O)[C@@H](CCCCN)NC(=O)[C@@H](CC(C)C)NC(=O)[C@@H](Cc1ccccc1)NC(=O)[C@@H](CO)NC(=O)[C@@H](CCCCN)NC(=O)[C@@H](Cc1c[nH]c2ccccc12)NC(=O)[C@@H](CCCCN)NC(C)=O)[C@H](C)O)[C@H](C)O)C(C)C)[C@H](C)O)C(=O)N[C@H](CO)C(=O)N[C@H](CO)C(N)=O,,UB1005,,2 µg/mL
CC[C@H](C)[C@H](NC(=O)[C@H](CC(C)C)NC(=O)[C@H](CC(=O)O)NC(=O)[C@H](CO)NC(=O)[C@H](CCCNC(=N)N)NC(=O)[C@@H](N)CO)C(=O)N[C@H](C(=O)N[C@@H](Cc1c[nH]cn1)C(=O)N[C@@H](CCC(N)=O)C(=O)N[C@@H](CCCNC(=N)N)C(=O)N[C@@H](CC(C)C)C(=O)N[C@@H](Cc1ccccc1)C(N)=O)C(C)C,broth microdilution,Mueller Hinton broth,,> 400 µg/mL
c1cc2c(s1)CCOC21CCN(Cc2ccc3c(c2)OCCO3)CC1,broth microdilution,3,,> 64 µM
c1ccc(CCNC2CCCc3c2[nH]c2ccc(C4CCCCC4)cc32)cc1 (stereo not shown),"microbial growth, broth dilution",ATCC11775,,> 41 µg/mL
C[C@@](O)(C(F)F)[C@H](NC(=O)c1ccc(C#CC#CC2CC2)cc1)C(=O)NO,,NDM-1 ATCC BAA-2471,,0.01 µg/mL
Cc1cc(N)c2cc(NC(=O)c3ccc4c(-c5cccc(N)c5)cccc4c3)ccc2n1,,hyperporinated wild type,,> 400 µM
CC(C)C[C@@H]1NC(=O)[C@@H](CC(C)C)NC(=O)[C@H](CCN)NC(=O)[C@@H](NC(=O)[C@H](CCN)NC(=O)[C@@H](N)[C@@H](C)O)CCNC(=O)[C@H]([C@@H](C)O)NC(=O)[C@H](CCN)NC(=O)[C@H](CCN)NC1=O,broth microdilution,"MCR2, colistin-resistant, mcr plasmid, CAMHB with polysorbate-80","16 h, 37 °C, added: 0.002% polysorbate-80",> 64 µg/mL
CC(=O)OCc1cc(-c2nc3ccccc3n(-c3ccc([N+](=O)[O-])cc3[N+](=O)[O-])c2=O)nn1-c1ccccc1,microbial growth,ATCC25922,,> 500 µg/mL
CCCCCCCCCCCCCCCCCCCCCCSCC1OC(OC2C(N)CC(N)C(OC3OC(CN)C(O)CC3N)C2O)C(O)C(N)C1O (stereo not shown),,BL21(DE3) pET22b,,> 150 µg/mL
CC[C@H](C)[C@H](NC(=O)[C@@H](CCCNC(=N)N)NC(=O)[C@H](CCCNC(=N)N)NC(=O)[C@@H]1CCCN1C(=O)[C@@H]1CCCN1C(=O)[C@H](CCCNC(=N)N)NC(=O)[C@@H]1CCCN1C(=O)[C@H](CCCNC(=N)N)NC(=O)[C@@H]1CCCN1C(=O)[C@H](CC(C)C)NC(=O)[C@H](Cc1ccc(O)cc1)NC(=O)[C@@H]1CCCN1C(=O)[C@@H]1CCCN1C(=O)[C@H](CCCCN)NC(=O)[C@H](CCCNC(=N)N)NC(=O)[C@@H](N)C(C)C)C(=O)N[C@@H](Cc1ccc(O)cc1)C(=O)N[C@@H](CC(N)=O)C(=O)N[C@H](CCCNC(=N)N)C(N)=O,broth microdilution,BW25113,18 h,8 µg/mL
CCCCCCCCCCCCCCCCCCSCC1OC(OC2C(N)CC(N)C(OC3OC(CN)C(O)CC3N)C2O)C(O)C(N)C1O (stereo not shown),,BL21(DE3) pET22b,,> 150 µg/mL
Cc1cc(N)c2cc(NC(=O)c3ccc4cc(C(=O)N5CCN(C)CC5)ccc4c3)ccc2n1,,hyperporinated ΔtolC,,200 µM
C/C(=N/NC(=N)N)c1nnn(-c2ccc(C#CC(C)(C)C)cc2)c1C,broth microdilution,JW55031 tolC mutant,,32 µg/mL
CC[C@H](C)[C@H](NC(=O)[C@H](C)NC(=O)[C@@H](NC(=O)[C@H](CC(=O)O)NC(=O)[C@H](CCCCN)NC(=O)[C@H](CO)NC(=O)[C@@H](NC(=O)[C@H](CC(N)=O)NC(=O)[C@H](C)NC(=O)[C@@H](NC(=O)[C@H](CCC(=O)O)NC(=O)[C@H](CCCCN)NC(=O)[C@@H](NC(=O)[C@@H](NC(=O)[C@H](Cc1c[nH]cn1)NC(=O)[C@H](CCCCN)NC(=O)[C@@H](NC(=O)[C@H](CCCCN)NC(=O)[C@H](CCCCN)NC(=O)[C@@H](NC(=O)[C@H](CC(C)C)NC(=O)[C@H](CCCCN)NC(=O)[C@H](CC(N)=O)NC(=O)[C@H](Cc1ccccc1)NC(=O)[C@H](CCCNC(=N)N)NC(=O)[C@H](CCCCN)NC(=O)[C@H](CCCNC(=N)N)NC(=O)[C@H](Cc1ccccc1)NC(=O)CN)C(C)C)C(C)C)[C@@H](C)O)[C@@H](C)CC)[C@@H](C)O)C(C)C)C(C)C)C(=O)N[C@H](C(=O)N[C@@H](C)C(=O)NCC(=O)N[C@@H](CO)C(=O)NCC(=O)N[C@H](C(=O)N[C@@H](C)C(=O)N[C@H](C(=O)NCC(=O)N[C@@H](C)C(=O)N[C@@H](C)C(=O)N[C@@H](CCSC)C(N)=O)C(C)C)C(C)C)C(C)C,,"isolate RKI 131/03, CAMHB",,4 µg/mL
CC(C)C[C@@H]1NC(=O)[C@H](C)NC(=O)[C@H](NC(=O)[C@H](CO)NC(=O)[C@@H](CCCCN)NC(=O)[C@@H](C)NC(=O)[C@@H](N)Cc2ccccc2)[C@H](C(N)=O)OC(=O)[C@H](CC(C)C)NC1=O,,ATCC 10798,TFA salt,> 32 µg/mL
CCCCCCCCCCCCCCCCCC(=O)N[C@H](C(=O)N[C@H](C(=O)N[C@H](C(=O)N[C@@H](CCCCN)C(=O)N[C@@H](CCCCN)C(=O)N[C@@H](CCCCN)C(=O)N[C@@H](CCCCN)C(=O)N[C@@H](CCCCN)C(N)=O)C(C)C)C(C)C)C(C)C,broth microdilution,K12,"16-24 h, 37 °C, prepared at pH 7",> 32 µg/mL
CCCCCCCCCCCCCC(=O)N[C@@H](Cc1ccc2ccccc2c1)C(=O)N[C@@H](CCCCN)C(=O)N[C@@H](CCCCN)C(=O)N[C@@H](CCCCN)C(=O)N[C@@H](CCCCN)C(N)=O,broth microdilution,"K12, water pH 7","18 h, 37 °C",16 µg/mL
CC[C@H](C)[C@H](NC(=O)[C@H](CO)NC(=O)[C@H](CO)NC(=O)[C@H](Cc1ccccc1)NC(=O)CN)C(=O)N[C@@H](Cc1ccccc1)C(=O)N[C@@H](CCCNC(=N)N)C(N)=O,,ATCC 8739,added: 0.5 mM KCl,> 128 µM
CC[C@H](C)[C@H](NC(=O)[C@H](CCN)NC(=O)[C@H](Cc1ccccc1)NC(=O)[C@H](Cc1ccccc1)NC(=O)CCCCCO)C(=O)N[C@@H](CCN)C(=O)N[C@H](Cc1ccccc1)C(=O)N[C@@H](CC(C)C)C(=O)N[C@@H](CCN)C(=O)N[C@@H](C(=O)N[C@@H](CC(C)C)C(=O)N[C@@H](CO)C(N)=O)C(C)C,,,"24 h, 37 °C",12.5 µM
CC[C@H](C)[C@H](NC(=O)[C@H](NC(=O)[C@@H](CCCNC(=N)N)NC(=O)[C@@H](N)COC(=O)[C@@H](NC(=O)[C@@H](Cc1ccccc1)NC)[C@@H](C)CC)[C@@H](C)CC)C(=O)N[C@@H](CO)C(=O)N[C@H]1C(=O)N[C@@H](C)C(=O)N[C@@H](CC(C)C)C(=O)N[C@@H]([C@@H](C)CC)C(=O)O[C@H]1C,broth microdilution,"ATCC 10798, Mueller-Hinton broth","16 h, 37 °C",> 8 µg/mL
Cc1cccc(C)c1SCC1OC(OC2C(N)CC(N)C(OC3OC(CN)C(O)CC3N)C2O)C(O)C(N)C1O (stereo not shown),,MC1061,,18.8 µg/mL

# Some of these lines once more:
SMILES,assay,system,setting,MIC
CC[C@H](C)[C@H](NC(=O)[C@H](NC(=O)[C@@H](CCCNC(=N)N)NC(=O)[C@@H](N)COC(=O)[C@@H](NC(=O)[C@@H](Cc1ccccc1)NC)[C@@H](C)CC)[C@@H](C)CC)C(=O)N[C@@H](CO)C(=O)N[C@H]1C(=O)N[C@@H](C)C(=O)N[C@@H](CC(C)C)C(=O)N[C@@H]([C@@H](C)CC)C(=O)O[C@H]1C,broth microdilution,"ATCC 10798, Mueller-Hinton broth","16 h, 37 °C",> 8 µg/mL
